Published values pooled from the literature.
Numbered parts are unrelated; each lists some results of a single study.

Set 1
Target: RNA binding protein fox-1 homolog 2, RRM domain, GST-SBP tag (RBFOX2, Homo sapiens, UniProt O43251-10, residues 100-194)
Method: RNA Bind-n-Seq
Molecule type: RNA
Medium: in vitro
Tested at: 365 nM
Setting: natural RNA segment, single round, ends assumed
Baseline: no-protein control
Reading: higher = stronger binding
Quantity: RBNS enrichment (R)
Constant ends, left off below: GGGAGUUCUACAGUCCGACGAUC … UGGAAUUCUCGGGUGCCAA
Target sequence (chain): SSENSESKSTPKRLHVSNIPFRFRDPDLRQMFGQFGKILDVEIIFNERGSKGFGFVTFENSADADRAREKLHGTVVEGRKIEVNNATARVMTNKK
UGACUAACAUUUUCCAGCGCCUACUAUGUGUCAGAAACAAGUGUUUCUGCCUGGACAUCAUAAAUGGGGACUUGGACCCUGAGGAGAGUCAGGCCACGGUAAGCCCUUCC: 0.342
CAGAAGCCCACCAAACAGGAGGAAUUCUAUGCCUGACGCGGGAGCCAUGCGCCCCCUCCGCCCUGCCACUCACUAGGCCCCCACUUGCCUCUUCCUUGAAGAACUGCAGG: 0.22
UUAGGAAAUAAUGUUUGUAAUAAACUUAACUAUGUUACAUAUCAACAGGCAAAAAUAUAGAAUGUUACAUAGUGUUGUGUGAUUAAAUUAUAGUUCCUGCUGUUAACAUU: 0.488
UGAUUUUACAGGCUCAUAGGUGGAAGGGACUUGCCUUGUUUCAGAUGAGACUUUGGAGUAUGGACUUUUGAGUUAAUGCUGAAAUGAGUUAAGACUUUGGGGGACUGUUG: 0.503
CUCCAAAUUCCCCCAGCAGACUUCUACCCUCGCCAAGUUCCCAAAACCCACUCAGCAAAGUUGCCAACCUCGACGGGCUAGCAGUGUCUAAGCAGCGAUGGGUUCAGUGU: 0.279
UAACCACAGCCUCACAGCUGGUCUCUGGCAGUGGUUAGGACAGGCGGGAGCAACCACAAUCAAACCUACAGGGCAGGCCCUAGGGUUUGUUAUCCCACGUUCAGGCCAGG: 0.428
GUCUACUGUGAGCUCUUUCCUUGAUUGGUUUGUGGGUUCCAUGUAUAAACAAAUGGCAAAACACAAGAGAUGGGACAAACUCAUGACAAACUGGUAUCUCUUGCUGAUGG: 0.584
UGUGUGUCUAACUCUCAGUUAUAAGCAUUCUGACCAGUGUUUAAACGUGUAAAUAAGAACACACAUAGUUAACUAAAGAACCAGGCAGUCCCCUGCUUAACUGCAGCCUG: 0.243
GAACGGGACUGAAUUUGAUCACCAGCCCCACAAACCAUUCUCAAUGGUCAAUGGUUGUAAUCCCAGCACUACAAGGCAGGAAGAUCAUAAGUUCAAGGUCAUUCUUAUCU: 0.249
UUAGCAGAAUUACAGAUCUUAAGUACUAACUGCAGUCCAAGAUGGAAGAGUACUCAGCAGCCACUGCCCUCAUCAGGAACCUCCUCGGCAUCCAUCAGUCUCCUCACUGC: 0.306
CCUGCACCUCCGCGGGCUGACUGGGCCACAGCCCCGAUGAUUCUUAACACAGCCUUCCUUCUGCUCCCACCCCAGAAAUCACUGUGAAAUUUCAUGAUUGGCUUAAAGUG: 0.968
GAGUUUCUUCAUUUCUGUCUCACAAUUAUCAAAAGCUAGAAUUAGCUUCUGCCCUAUGUUUCUGUACUUCUAUUUGAACUGGAUAACAGAGAGACAAUCUAAACAUUCUC: 0.48

Set 2
Target: Centromere-binding protein 1, full length, His-tagged (CBF1, Saccharomyces cerevisiae, UniProt P17106, residues 1-351)
Chain of UniProt P17106 (whole entry, looked up): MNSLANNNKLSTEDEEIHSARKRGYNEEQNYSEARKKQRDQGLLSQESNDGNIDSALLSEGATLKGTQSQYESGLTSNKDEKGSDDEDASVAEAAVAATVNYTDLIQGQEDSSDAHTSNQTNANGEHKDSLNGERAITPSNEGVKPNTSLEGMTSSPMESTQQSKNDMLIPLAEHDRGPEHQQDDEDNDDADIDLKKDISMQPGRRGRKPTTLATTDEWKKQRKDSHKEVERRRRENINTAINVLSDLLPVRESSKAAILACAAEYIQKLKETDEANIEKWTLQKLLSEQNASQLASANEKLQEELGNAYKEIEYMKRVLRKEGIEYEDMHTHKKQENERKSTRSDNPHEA
Method: competition protein-binding microarray
Molecule type: double-stranded DNA, one strand shown
Medium: in vitro
Tested at: 2 µM
Setting: whole 60-bp probe, lowest competitor level
Added: Pho4 competitor, 0.05 µM
Reading: higher = stronger binding
Quantity: fluorescence intensity
Constant ends, left off below: … GTCTTGATTCGCTTGACGCTGCTG
CGTCCTAGTGATTGTCACGCTACTTCCATGAGGAAG: 239 a.u.
AAAGCGGTAATTTGCGGAGTGGGTGCAGATATCTAT: 73.8 a.u.
TGCGCAACAACTTGAAGAGTGGGTGTATGTCTAGAA: 79.9 a.u.
GCTATTGATCAAGGCCACATGCAAAATAGGGAAGGG: 114 a.u.
ATGGACACTTTAAAGCACGTTTTGCTTGAAGAGACA: 155 a.u.
TGGGTACAAAGCAGTGTCGTGCTTTTCCAAGGCATC: 64.6 a.u.
GGAAACTCTGGCGGCCACGTGAATTCAAATTACAAC: 1340 a.u.
GGCAAAAGCTTACTTTCCGTGCCGAAGGTGTTGTTA: 71.8 a.u.
TGCTCTATGATGTTGCACATGCACTTGTTTTGTTGT: 155 a.u.
CTTCTGTAAATTTGCTTAGTGGGTGGACGCGCCCCG: 70.3 a.u.
CGGGGTTAAGTTTCTCACGTGTTTTGCTTGCAGCAG: 970 a.u.
CATACCCAACCTTTTCACGTGGGGTAAGATATTTGT: 948 a.u.
CCACAATCACTAGACCATGTGATTTGTATTTTTCGG: 2090 a.u.
GGCATATCAATATGACATGTGATATCACTCCGCGGC: 738 a.u.
CGACACCGATAGCGTCATGTGTAGCAACCCAAATAA: 146 a.u.
CTTCTGTAAATTTTTCACGTGCATTGACGCGCCCCG: 879 a.u.
GGCCTCAAGGCATTACACGTTACGATTTTCCAACTG: 78.2 a.u.
CTGTTCTGTTCATCGCATGTGCATATATATATATAG: 174 a.u.
CTTGGAATCAACTTGGTCATGACAACACCAGCAGTT: 64.8 a.u.
CGGGGTTAAGTTTGCTGAGTGGGTGGCTTGCAGCAG: 68.3 a.u.
CTTCTGTAAATTTGGAGCGTGGGTGGACGCGCCCCG: 71.6 a.u.
CTTCTGTAAATTTTTCACGTGCTGTGAAGCGCCCCG: 825 a.u.
AAAGTTGGGTGTCTGCGTGTGTGTATGTTTCCAATT: 71.3 a.u.
CGATCGTATTTTCGGCATGTGGATTATCCTTGCACC: 89 a.u.
CTGTGTTAACTTCAACACGTGAGGAATTTGCTTCAT: 1840 a.u.

Set 3
Target: Interferon regulatory factor 5, full length, phosphomimetic (IRF5, Homo sapiens, UniProt Q13568-2, residues 1-514, S451D/S453D/S456D/S462D)
Method: protein-binding microarray
Molecule type: double-stranded DNA, one strand shown
Medium: in vitro
Tested at: 940 nM top
Setting: 60-bp whole probe
Added: salmon DNA 0.4 mg/ml
Baseline: random background probes
Reading: higher = stronger binding
Quantity: fitted relative affinity
Constant ends, left off below: GCCTAGCAC … GTCTTGATTCGCTTGACGCTGCTG
TCATTTTTCATTTTTTTACTGTGCTAG: 1.42 z-score
TACGATCTCAGACTGGAGACGTGCTAG: -0.143 z-score
TTAGGTTTCTGTTTCGGTTAGTGCTAG: 10.2 z-score
TCTTTTTTTCTTTTATTAGTGTGCTAG: 1.87 z-score
TCATGTTTTTCATTGTTACTGTGCTAG: 1.25 z-score
GACGGACTGGGGACTGGGCACGTGCTA: -0.801 z-score
GTCGGACTGCTTTTCCTGACGTGCTAG: 0.318 z-score
GACGGACGGGACTATCGGGACGTGCTA: -0.292 z-score
TTACATTTATATCTTTGCTTGTGCTAG: 0.979 z-score
TTAGGTATCGGGTATGGGTTAGTGCTA: 5.81 z-score
TCATGACTCCCTCTCTGACTGTGCTAG: 0.456 z-score
GACGGTACCGACTATCGGGACGTGCTA: -0.298 z-score
TTAGGTATCGGTATCGGCTAGTGCTAG: 10.1 z-score
GACGATCGCAGTTTCGAGACGTGCTAG: 3.13 z-score
GACGGTTTCTGGTATCGGGACGTGCTA: 4.45 z-score
TTAGGTATACTTTTCCTTTAGTGCTAG: -0.153 z-score
GACGGTTTCGGGTTCGGGACGTGCTAG: 8.97 z-score
GACGGTTCCGGGACTGGGGACGTGCTA: 0.598 z-score
TTAGATCTCAGCATCGATTAGTGCTAG: 0.0902 z-score
GCCGGTCTCGGACTGGGGACGTGCTAG: 1.23 z-score

Set 4
Target: Histone acetyltransferase KAT6A, both winged helices, GST fusion (KAT6A, Homo sapiens, UniProt Q92794, residues 1-181)
Method: protein binding microarray
Molecule type: double-stranded DNA, one strand shown
Medium: in vitro
Tested at: not given
Setting: 8-mer, flanks averaged, mean of 2 arrays, mostly near background
Baseline: not given
Reading: higher = stronger binding
Quantity: E-score
Residues (chain): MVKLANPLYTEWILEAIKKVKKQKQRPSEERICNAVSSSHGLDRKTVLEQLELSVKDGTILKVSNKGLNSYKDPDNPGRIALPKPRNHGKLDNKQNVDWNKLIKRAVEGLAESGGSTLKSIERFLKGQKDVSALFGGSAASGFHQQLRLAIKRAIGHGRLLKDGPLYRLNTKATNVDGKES
AGTTAACC: 0.052
CACTTCTC: -0.216
CTTTGCGC: 0.218
GCGGCCAC: 0.209
CGATAAAA: 0.0736
CCACTTAC: -0.0331
AGTATGTC: -0.114
ATATGTTA: -0.16
TATTATAA: -0.0811
ACTTGTCA: -0.0535
TCTCCCCA: -0.27
GTTGGTTA: -0.0952
CGATAGTC: 0.122
ACTGATCG: -0.0108
CGTAATGC: 0.115
ACTACTAC: 0.0111
CGGAGTTA: 0.128
CCCGTTGA: 0.183
CTACACGC: 0.001
AGACCAAT: -0.146
GAGAAAGC: 0.0303
CAACATGG: -0.142
ACTCCGGA: 0.0403
GACTCCCC: -0.158
ACGCTCAA: 0.0582

Set 5
Target: Sal-like protein 4, full length isoform B (SALL4, Homo sapiens, UniProt Q9UJQ4-2, residues 1-616)
Method: universal PBM
Molecule type: double-stranded DNA, one strand shown
Medium: in vitro
Tested at: not given
Setting: 8-mer, flanks averaged, mean of replicates
Reading: higher = stronger binding
Quantity: E-score
Residues (chain): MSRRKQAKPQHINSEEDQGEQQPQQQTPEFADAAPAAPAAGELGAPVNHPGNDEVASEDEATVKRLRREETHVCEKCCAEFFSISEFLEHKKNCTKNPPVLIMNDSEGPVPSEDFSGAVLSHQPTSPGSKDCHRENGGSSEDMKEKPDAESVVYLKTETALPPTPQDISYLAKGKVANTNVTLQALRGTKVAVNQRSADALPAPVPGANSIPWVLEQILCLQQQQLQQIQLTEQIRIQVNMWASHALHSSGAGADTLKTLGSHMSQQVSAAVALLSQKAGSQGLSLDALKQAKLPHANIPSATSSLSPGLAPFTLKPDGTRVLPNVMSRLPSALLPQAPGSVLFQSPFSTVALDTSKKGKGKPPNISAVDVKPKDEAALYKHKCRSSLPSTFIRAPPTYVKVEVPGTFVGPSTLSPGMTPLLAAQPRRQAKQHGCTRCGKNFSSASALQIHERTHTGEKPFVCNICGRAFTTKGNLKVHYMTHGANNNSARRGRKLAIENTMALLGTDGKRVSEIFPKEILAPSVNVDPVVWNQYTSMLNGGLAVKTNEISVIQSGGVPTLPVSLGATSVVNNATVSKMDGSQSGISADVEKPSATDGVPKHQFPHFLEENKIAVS
AAGCCAAG: -0.224
CTAGACGC: -0.123
ACGCGTGG: -0.153
GTCTGAGA: -0.0956
ACCTGGAA: 0.104
GAGGGTAC: -0.244
AGACTCAG: -0.123
AACCCCAT: -0.0345
AAAGCCAG: -0.226
CCACAGGC: -0.353
ACAGGAGG: -0.173
ATTGGGTA: 0.0821
CAATACCC: 0.041
ATTATTGG: 0.283
ATGACCGG: -0.234
GGGAGACC: -0.351
AAACTATG: 0.148
TCATGCGA: -0.0121
CTGATTCA: -0.00148
CTTCATAA: 0.295
CTCATAAC: 0.25
ACCGCATA: 0.214
CACGACCA: -0.111
TATTCCAA: 0.251
CAGTCATA: 0.28
